Published values collected from several papers.
Lines come from different studies, so protocols differ. Numbers after ± are the reported error.

Molecule	target or system	test	test system	setting	endpoint	result
CCC[C@@H](C)[C@H](O)[C@H](C)[C@H]1OC(=O)[C@H]([C@@H](C)O)NC(=O)[C@H]([C@@H](C)CC)OC(=O)[C@H](C)[C@H](O)[C@H]([C@@H](C)CC)NC(=O)[C@@]2(C)CSC(=N2)[C@@]2(C)CSC(=N2)c2csc(n2)C[C@H](OC)[C@@H]1C	mouse neocortical neurons	spontaneous Ca2+ oscillations, inhibitor, fluo-3 Ca2+ imaging	–	–	EC50	79.8 nM
CC[P](CC)(CC)=[Au][S][C@@H]1O[C@H](COC(C)=O)[C@@H](OC(C)=O)[C@H](OC(C)=O)[C@H]1OC(C)=O	BT-474	cell growth or viability, resazurin	–	72 h	EC50	3940 nM
OO	ARPE-19	cell death, ATP content	–	16 h, with: TNF-alpha 10 ng/mL	EC50	650000 nM
CC(C)(C)c1cc(C=C(C#N)C#N)cc(Br)c1O	A2780	cell proliferation, resazurin	–	72 h	EC50	21300 nM
O=c1c(O)c(N2CCN(Cc3ccc(Br)cc3F)CC2)oc2ccccc12	HFL1 transfected with N protein	Smad reporter gene, inhibitor, CAGA luciferase reporter	–	24 h, with: N protein	EC50	2990 nM
rat urocortin I	rat hippocampal pyramidal neurons	CREB phosphorylation, agonist, refers to: pCREB Ser133	–	15 min	EC50	4 nM
CCC(=O)CCCCC[C@@H]1NC(=O)[C@H]2CCCCN2C(=O)[C@H]([C@@H](C)CC)NC(=O)[C@H](Cc2cn(OC)c3ccccc23)NC1=O	HFF	CellTiter proliferation	–	–	EC50	165 ± 33 nM
CC(C)C[C@H](NC(=O)[C@@H](N)CC(C)C)C(=O)N[C@@H](CO)C(=O)N[C@H](C(=O)NCC(=O)NCC(=O)O)C(C)C	Melan-A specific CD8 T cell clone	TNF-alpha production	–	cross-presentation, Melan-A A27L epitope, with: mature macrophage-derived dendritic cells	EC50	150 nM
F[P-](F)(F)(F)(F)F.F[P-](F)(F)(F)(F)F.[Ru+2].c1ccc(-c2ccccn2)nc1.c1ccc(-c2ccccn2)nc1.c1csc(-c2ccc(-c3cc4cccnc4c4ncccc34)s2)c1	SK-MEL-28	cell viability, resazurin	–	16 h drug-to-light interval, with: visible light 100 J/cm2	EC50	214 ± 2 nM
C[C@@]12OC(=O)[C@]1([C@@H](O)[C@@H]1C=CCCC1)NC(=O)[C@@H]2CCCl	Jurkat	DNA fragmentation, propidium iodide flow cytometry	–	24 h, about 50% fragmentation	EC50	25 nM
COc1cc(Nc2ncc(F)c(Nc3ccc4c(n3)NC(=O)C(C)(C)O4)n2)cc(OC)c1OC	HUVEC	VEGF-dependent tube outgrowth	–	–	EC50	21.4 ± 3.4 nM
CN[C@@](C)(C[18F])C(=O)O	–	–	SCID mouse DU-145 xenograft, liver	30 min, post injection	tissue uptake	8.5 ± 2.1 %ID/g
CO[C@@H]1C(=O)O[C@H](C)[C@H](C)/C=C(\C)C[C@H](C)C(=O)N[C@@H](C)C(=O)N(C)[C@H](Cc2c[nH]c3ccccc23)C(=O)N[C@H]1c1ccc(O)cc1	human foreskin fibroblast HFF	cytotoxicity, viable cells	–	72 h	EC50	109 ± 7 nM
CC[C@H](C)[C@H](NC(=O)[C@H](C)NC(=O)CNC(=O)[C@H](Cc1ccccc1)NC(=O)[C@H](CC(N)=O)NC(=O)[C@H](CC(N)=O)NC(=O)[C@H](CO)NC(=O)[C@H](CO)NC(=O)[C@H](Cc1c[nH]cn1)NC(=O)[C@@H](NC(=O)[C@H](CC(C)C)NC(=O)[C@H](Cc1ccccc1)NC(=O)[C@H](CC(N)=O)NC(=O)[C@H](C)NC(=O)[C@H](CC(C)C)NC(=O)[C@H](CCCNC(=N)N)NC(=O)[C@H](CCC(N)=O)NC(=O)[C@@H](NC(=O)[C@H](C)NC(=O)[C@@H]1CSSC[C@H](NC(=O)[C@@H](N)CCCCN)C(=O)N[C@@H](CC(N)=O)C(=O)N[C@@H]([C@@H](C)O)C(=O)N[C@@H](C)C(=O)N[C@@H]([C@@H](C)O)C(=O)N1)[C@@H](C)O)C(C)C)C(=O)N[C@@H](CC(C)C)C(=O)N[C@@H](CO)C(=O)N[C@@H](CO)C(=O)N[C@H](C(=O)N[C@@H](CC(N)=O)C(=O)N[C@H](C(=O)NCC(=O)N[C@@H](CO)C(=O)N[C@@H](CC(N)=O)C(=O)N[C@H](C(=O)N[C@@H](Cc1ccc(O)cc1)C(N)=O)[C@@H](C)O)C(C)C)[C@@H](C)O	INS1	cell growth or viability, fluorescence	–	24 h	EC50	27000 nM
